Experimental data from different studies.
Parts stem from different laboratories: compare values within a part only. “And” joins repeats or separate records; there may be more than shown.
Chain of UniProt Q8TDC3 (whole entry, looked up): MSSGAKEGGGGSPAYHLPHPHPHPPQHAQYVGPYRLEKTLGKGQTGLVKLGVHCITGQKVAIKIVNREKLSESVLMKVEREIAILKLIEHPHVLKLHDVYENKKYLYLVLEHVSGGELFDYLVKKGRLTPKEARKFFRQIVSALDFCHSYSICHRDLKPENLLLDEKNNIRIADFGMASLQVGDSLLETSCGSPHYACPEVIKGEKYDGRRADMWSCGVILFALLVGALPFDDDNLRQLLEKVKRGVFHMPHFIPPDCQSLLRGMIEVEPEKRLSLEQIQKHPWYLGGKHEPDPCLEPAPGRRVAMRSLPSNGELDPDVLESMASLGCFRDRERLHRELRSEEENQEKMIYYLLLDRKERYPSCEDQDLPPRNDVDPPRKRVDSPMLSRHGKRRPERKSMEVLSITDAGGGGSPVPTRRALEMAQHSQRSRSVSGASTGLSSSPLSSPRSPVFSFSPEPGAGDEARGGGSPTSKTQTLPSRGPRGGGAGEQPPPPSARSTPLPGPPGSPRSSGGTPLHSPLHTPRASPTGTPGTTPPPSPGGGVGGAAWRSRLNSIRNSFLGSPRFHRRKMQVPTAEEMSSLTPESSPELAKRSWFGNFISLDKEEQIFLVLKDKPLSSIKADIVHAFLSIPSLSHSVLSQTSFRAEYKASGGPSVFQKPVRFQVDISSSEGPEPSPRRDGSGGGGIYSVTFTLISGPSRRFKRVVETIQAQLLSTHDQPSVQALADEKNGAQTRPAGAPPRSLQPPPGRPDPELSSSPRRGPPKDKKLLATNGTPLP
Chain of UniProt P00519 (whole entry, unmodified, looked up): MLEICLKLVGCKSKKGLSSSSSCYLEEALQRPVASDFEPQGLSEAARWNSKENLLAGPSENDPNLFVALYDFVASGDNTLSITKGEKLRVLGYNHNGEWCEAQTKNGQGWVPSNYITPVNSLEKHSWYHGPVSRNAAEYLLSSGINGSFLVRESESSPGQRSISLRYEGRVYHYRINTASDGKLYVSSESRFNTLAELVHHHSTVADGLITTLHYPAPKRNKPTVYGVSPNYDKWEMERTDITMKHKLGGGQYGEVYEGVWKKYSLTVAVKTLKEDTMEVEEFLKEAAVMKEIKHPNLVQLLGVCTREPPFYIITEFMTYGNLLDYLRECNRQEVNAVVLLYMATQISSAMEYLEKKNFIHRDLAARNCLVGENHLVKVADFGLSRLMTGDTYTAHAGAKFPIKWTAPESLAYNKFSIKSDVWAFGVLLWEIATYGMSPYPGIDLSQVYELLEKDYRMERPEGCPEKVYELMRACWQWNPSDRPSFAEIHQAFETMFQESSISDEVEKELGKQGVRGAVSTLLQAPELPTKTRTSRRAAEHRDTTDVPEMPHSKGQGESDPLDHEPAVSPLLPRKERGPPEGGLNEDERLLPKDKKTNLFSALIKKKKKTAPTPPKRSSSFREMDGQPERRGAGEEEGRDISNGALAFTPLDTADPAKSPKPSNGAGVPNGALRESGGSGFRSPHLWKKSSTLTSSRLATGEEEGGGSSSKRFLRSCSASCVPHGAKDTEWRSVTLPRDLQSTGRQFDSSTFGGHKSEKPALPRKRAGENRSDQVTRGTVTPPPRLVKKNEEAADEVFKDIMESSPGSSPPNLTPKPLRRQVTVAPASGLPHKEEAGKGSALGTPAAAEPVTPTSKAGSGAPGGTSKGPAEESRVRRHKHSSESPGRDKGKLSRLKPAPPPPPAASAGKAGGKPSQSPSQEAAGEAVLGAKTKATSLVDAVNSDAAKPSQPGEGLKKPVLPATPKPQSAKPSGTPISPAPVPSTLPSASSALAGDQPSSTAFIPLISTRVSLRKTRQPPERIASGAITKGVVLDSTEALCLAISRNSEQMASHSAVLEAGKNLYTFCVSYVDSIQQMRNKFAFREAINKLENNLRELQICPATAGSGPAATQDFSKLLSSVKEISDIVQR
Chain of UniProt Q9UPZ9 (whole entry, looked up): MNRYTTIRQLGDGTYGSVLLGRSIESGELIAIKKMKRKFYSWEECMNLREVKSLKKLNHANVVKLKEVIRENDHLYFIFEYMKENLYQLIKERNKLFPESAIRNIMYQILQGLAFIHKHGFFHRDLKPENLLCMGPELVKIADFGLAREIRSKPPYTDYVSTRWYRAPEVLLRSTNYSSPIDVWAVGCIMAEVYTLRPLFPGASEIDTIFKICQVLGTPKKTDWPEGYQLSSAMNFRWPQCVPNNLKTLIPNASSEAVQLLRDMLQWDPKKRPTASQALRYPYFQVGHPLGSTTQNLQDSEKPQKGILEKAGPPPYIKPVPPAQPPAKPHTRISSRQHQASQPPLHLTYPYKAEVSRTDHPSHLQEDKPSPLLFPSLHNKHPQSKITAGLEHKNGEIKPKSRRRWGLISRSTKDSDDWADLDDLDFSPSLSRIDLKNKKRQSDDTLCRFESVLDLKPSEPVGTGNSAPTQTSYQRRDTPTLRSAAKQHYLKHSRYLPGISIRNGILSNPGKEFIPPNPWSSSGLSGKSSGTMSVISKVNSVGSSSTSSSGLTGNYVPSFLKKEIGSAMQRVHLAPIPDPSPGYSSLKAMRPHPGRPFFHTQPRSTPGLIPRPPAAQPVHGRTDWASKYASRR
Chain of UniProt Q09013 (whole entry, looked up): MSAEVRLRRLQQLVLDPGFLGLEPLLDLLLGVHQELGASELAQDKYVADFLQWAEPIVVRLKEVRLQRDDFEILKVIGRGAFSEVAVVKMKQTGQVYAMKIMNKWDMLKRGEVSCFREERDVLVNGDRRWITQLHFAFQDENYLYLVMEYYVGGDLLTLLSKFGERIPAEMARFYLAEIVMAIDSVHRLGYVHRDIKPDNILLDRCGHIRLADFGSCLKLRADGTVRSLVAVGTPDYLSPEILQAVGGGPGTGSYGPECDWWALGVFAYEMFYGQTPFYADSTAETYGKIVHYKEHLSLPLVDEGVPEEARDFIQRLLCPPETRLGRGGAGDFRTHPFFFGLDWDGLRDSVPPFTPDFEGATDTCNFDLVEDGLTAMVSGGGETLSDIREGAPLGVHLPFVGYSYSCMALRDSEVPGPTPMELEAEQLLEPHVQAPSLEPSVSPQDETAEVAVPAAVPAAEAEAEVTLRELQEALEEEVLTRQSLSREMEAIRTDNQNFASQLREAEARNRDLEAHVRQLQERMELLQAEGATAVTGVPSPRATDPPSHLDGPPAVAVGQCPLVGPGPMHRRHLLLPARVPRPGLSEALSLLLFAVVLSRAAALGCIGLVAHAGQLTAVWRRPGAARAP
Chain of UniProt P57059 (whole entry, looked up): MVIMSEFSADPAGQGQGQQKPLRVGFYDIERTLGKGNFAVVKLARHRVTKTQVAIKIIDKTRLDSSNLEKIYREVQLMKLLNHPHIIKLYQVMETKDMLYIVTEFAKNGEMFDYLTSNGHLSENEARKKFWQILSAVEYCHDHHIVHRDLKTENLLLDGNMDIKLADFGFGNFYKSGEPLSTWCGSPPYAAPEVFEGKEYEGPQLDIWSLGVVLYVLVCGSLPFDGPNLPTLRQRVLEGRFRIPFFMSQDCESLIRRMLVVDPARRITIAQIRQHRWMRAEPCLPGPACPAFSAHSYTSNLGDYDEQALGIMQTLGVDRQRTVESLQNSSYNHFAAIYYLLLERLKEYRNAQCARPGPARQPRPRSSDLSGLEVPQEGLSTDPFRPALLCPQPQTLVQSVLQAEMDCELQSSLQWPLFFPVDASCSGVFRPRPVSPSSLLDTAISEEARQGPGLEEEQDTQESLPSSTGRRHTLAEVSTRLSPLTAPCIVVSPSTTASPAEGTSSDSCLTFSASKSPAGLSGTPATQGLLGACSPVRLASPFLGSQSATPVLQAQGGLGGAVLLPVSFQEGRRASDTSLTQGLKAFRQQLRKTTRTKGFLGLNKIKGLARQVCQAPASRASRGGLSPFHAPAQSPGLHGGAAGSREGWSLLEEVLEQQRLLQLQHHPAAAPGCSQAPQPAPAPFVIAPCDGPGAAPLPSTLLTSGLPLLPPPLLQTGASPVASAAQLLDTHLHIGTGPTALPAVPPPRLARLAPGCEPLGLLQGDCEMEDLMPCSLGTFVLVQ

Series 1 — tested at: 1 µM
SMILES: CN1CCN(C(=O)c2ccc(NC(=O)Nc3ccc(N(C)c4ccnc(Nc5ccc(CS(C)(=O)=O)cc5)n4)cc3)cc2)CC1
target	test	setting	scale	remaining binding
Dual serine/threonine and tyrosine protein kinase (DSTYK, Homo sapiens, UniProt Q6XUX3)	competitive binding panel, measured: RIPK5		baseline: vehicle	5.4%
Hepatocyte growth factor receptor (MET, Homo sapiens, UniProt P08581)	competitive binding panel		baseline: vehicle	8.8%
Dual specificity tyrosine-phosphorylation-regulated kinase 2 (DYRK2, Homo sapiens, UniProt Q92630)	competitive binding panel		baseline: vehicle	75%
Serine/threonine-protein kinase BRSK1 (BRSK1, Homo sapiens, UniProt Q8TDC3)	competitive binding panel		baseline: vehicle	100%
Serine/threonine-protein kinase PAK 2 (PAK2, Homo sapiens, UniProt Q13177)	competitive binding panel		baseline: vehicle	50%
Mitogen-activated protein kinase kinase kinase 5 (MAP3K5, Homo sapiens, UniProt Q99683)	competitive binding panel, measured: ASK1		baseline: vehicle	100%
Mitogen-activated protein kinase 10 (MAPK10, Homo sapiens, UniProt P53779)	competitive binding	JNK3		8.6%
Serine/threonine-protein kinase 38 (STK38, Homo sapiens, UniProt Q15208)	competitive binding panel, measured: NDR1		baseline: vehicle	54%
Serine/threonine-protein kinase pim-2 (PIM2, Homo sapiens, UniProt Q9P1W9)	competitive binding panel		baseline: vehicle	100%
Activin receptor type-2B (ACVR2B, Homo sapiens, UniProt Q13705)	competitive binding panel		baseline: vehicle	94%
Mitogen-activated protein kinase 4 (MAPK4, Homo sapiens, UniProt P31152)	competitive binding panel, measured: ERK4		baseline: vehicle	100%
Dual specificity mitogen-activated protein kinase kinase 6 (MAP2K6, Homo sapiens, UniProt P52564)	competitive binding panel, measured: MEK6		baseline: vehicle	82%
RAC-alpha serine/threonine-protein kinase (AKT1, Homo sapiens, UniProt P31749)	competitive binding panel		baseline: vehicle	100%
Tyrosine-protein kinase ABL1 (ABL1, Homo sapiens, UniProt P00519, F317I)	competitive binding, scanMAX			96% and 69%

Series 2 — tested at: 1 µM
Structure (SMILES): CCCOc1ccc([C@H]2[C@H](C(=O)O)[C@@H](c3ccc4c(c3)OCO4)CN2CC(=O)Nc2c(CC)cccc2CC)cc1
target	test	remaining binding [%]
Serine/threonine-protein kinase 35 (STK35, Homo sapiens, UniProt Q8TDR2)	cell-free assay, competition with immobilised ligand	92
Megakaryocyte-associated tyrosine-protein kinase (MATK, Homo sapiens, UniProt P42679)	cell-free assay, competition with immobilised ligand	83
Cyclin-dependent kinase-like 3 (CDKL3, Homo sapiens, UniProt Q8IVW4)	cell-free assay, competition with immobilised ligand	92
Serine/threonine-protein kinase SIK1 (SIK1, Homo sapiens, UniProt P57059)	competition binding	100
Mast/stem cell growth factor receptor Kit (KIT, Homo sapiens, UniProt P10721, A829P)	cell-free assay, competition with immobilised ligand	63
Ephrin type-A receptor 6 (EPHA6, Homo sapiens, UniProt Q9UF33)	cell-free assay, competition with immobilised ligand	100
Serine/threonine-protein kinase WNK2 (WNK2, Homo sapiens, UniProt Q9Y3S1)	cell-free assay, competition with immobilised ligand	58
Myotonin-protein kinase (DMPK, Homo sapiens, UniProt Q09013)	cell-free assay, competition with immobilised ligand	81
Receptor-type tyrosine-protein kinase FLT3 (FLT3, Homo sapiens, UniProt P36888, D835Y)	cell-free assay, competition with immobilised ligand	100
Serine/threonine-protein kinase ICK (CILK1, Homo sapiens, UniProt Q9UPZ9)	binding, competition with immobilised ligand	59
Ribosomal protein S6 kinase alpha-5, C-terminal kinase domain (RPS6KA5, Homo sapiens, UniProt O75582)	cell-free assay, competition with immobilised ligand	89
Serine/threonine-protein kinase D3 (PRKD3, Homo sapiens, UniProt O94806)	cell-free assay, competition with immobilised ligand	93
Bone morphogenetic protein receptor type-1B (BMPR1B, Homo sapiens, UniProt O00238)	cell-free assay, competition with immobilised ligand	61
Tyrosine-protein kinase BTK (BTK, Homo sapiens, UniProt Q06187)	cell-free assay, competition with immobilised ligand	55
Aurora kinase A (AURKA, Homo sapiens, UniProt O14965)	cell-free assay, competition with immobilised ligand	93
Serine/threonine-protein kinase BRSK1 (BRSK1, Homo sapiens, UniProt Q8TDC3)	cell-free assay, competition with immobilised ligand	100
Epidermal growth factor receptor (EGFR, Homo sapiens, UniProt P00533, L858R)	cell-free assay, competition with immobilised ligand	100
Serine/threonine-protein kinase Nek6 (NEK6, Homo sapiens, UniProt Q9HC98)	cell-free assay, competition with immobilised ligand	96
ALK tyrosine kinase receptor (ALK, Homo sapiens, UniProt Q9UM73)	cell-free assay, competition with immobilised ligand	100
Inhibitor of nuclear factor kappa-B kinase subunit epsilon (IKBKE, Homo sapiens, UniProt Q14164)	cell-free assay, competition with immobilised ligand	68
Cyclin-dependent kinase 2 (CDK2, Homo sapiens, UniProt P24941)	cell-free assay, competition with immobilised ligand	87
Serine/threonine-protein kinase mTOR (MTOR, Homo sapiens, UniProt P42345)	cell-free assay, competition with immobilised ligand	77

Series 3 — read-out: enzyme activity; mode: inhibitor; tested at: 0.5 µM; baseline: control
Target: Aurora kinase B (AURKB, Homo sapiens, UniProt Q96GD4)
Chain of UniProt Q96GD4 (whole entry, looked up): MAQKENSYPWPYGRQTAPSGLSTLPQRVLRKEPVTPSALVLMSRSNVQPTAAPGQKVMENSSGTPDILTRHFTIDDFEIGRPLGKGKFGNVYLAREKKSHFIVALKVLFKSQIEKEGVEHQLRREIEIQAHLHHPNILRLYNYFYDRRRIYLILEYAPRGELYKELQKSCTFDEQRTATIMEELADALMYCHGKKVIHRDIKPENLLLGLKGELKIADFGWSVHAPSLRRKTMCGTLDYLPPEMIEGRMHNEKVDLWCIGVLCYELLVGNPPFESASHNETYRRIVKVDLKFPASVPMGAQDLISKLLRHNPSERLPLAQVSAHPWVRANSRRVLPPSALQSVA
SMILES	remaining activity [%]
O=Nc1c(-c2c(O)[nH]c3ccccc23)[nH]c2ccccc12	49.6
FC(F)(F)c1ccc(/C=C/c2nc(COc3ccc(CCCCn4ccnn4)cc3)co2)cc1	98
CCN(CC)CCCCN1c2ccccc2Oc2ccc(Cl)cc21	94.1
O=C(c1ccccc1)c1ccc(N2CCOCC2)cc1O	95.5
CC(C)(C)c1nc2c3cc[nH]c(=O)c3c3cc(F)ccc3c2[nH]1	11.2
O=C1c2ccccc2-c2nc3nnnn3nc21	84.7
N#C/C(=C(/N)SC1C=CC=CC1)c1cccc(C(O)c2ccncc2)c1 (stereo not shown)	105
Nc1nc(Nc2ccc(S(N)(=O)=O)cc2)nn1C(=S)Nc1c(F)cccc1F	12.9
NC(=O)c1ccc(-c2nc(-c3ccc4c(c3)OCCO4)c(-c3ccccn3)[nH]2)cc1	101
CCCCc1c(-c2ccc(O)cc2)[nH]c2nccnc12	66.9
CC(C)N(CCC(=O)c1ccc2ccccc2c1)Cc1ccccc1	101
NC(=O)c1cccc(-c2cc(Nc3ccc(OC(F)(F)F)cc3)ncn2)c1	96.9
c1cc(-c2cnn3cc(-c4ccc(OCCN5CCCCC5)cc4)cnc23)ccn1	55
O=C(O)/C=C/c1cc(Br)c(Br)c(Br)c1Br	88.5
O=c1c(-c2ccc(F)cc2)c(-c2ccncc2)[nH]n1-c1ccc(Cl)cc1	95.1
O=C1NC(=O)/C(=C/c2ccc3c(c2)OC(F)(F)O3)S1	102
N#CC(c1ccnc(NCCc2cccnc2)n1)c1nc2ccccc2s1 (stereo not shown)	94
Clc1ccc(Nc2nnc(Cc3ccncc3)c3ccccc23)cc1	90
CC(C)n1cnc2c(Nc3cccc(Cl)c3)nc(NCCO)nc21	106
C[C@@H](N)[C@H]1CC[C@H](C(=O)Nc2ccncc2)CC1	93.9
CNc1cc2c(Nc3cccc(Br)c3)ncnc2cn1	76.3

Series 4 — read-out: enzyme activity; mode: inhibitor; tested at: 10 µM
Target: Calcium/calmodulin-dependent protein kinase type II subunit alpha (CAMK2A, Homo sapiens, UniProt Q9UQM7)
Chain of UniProt Q9UQM7 (whole entry, looked up): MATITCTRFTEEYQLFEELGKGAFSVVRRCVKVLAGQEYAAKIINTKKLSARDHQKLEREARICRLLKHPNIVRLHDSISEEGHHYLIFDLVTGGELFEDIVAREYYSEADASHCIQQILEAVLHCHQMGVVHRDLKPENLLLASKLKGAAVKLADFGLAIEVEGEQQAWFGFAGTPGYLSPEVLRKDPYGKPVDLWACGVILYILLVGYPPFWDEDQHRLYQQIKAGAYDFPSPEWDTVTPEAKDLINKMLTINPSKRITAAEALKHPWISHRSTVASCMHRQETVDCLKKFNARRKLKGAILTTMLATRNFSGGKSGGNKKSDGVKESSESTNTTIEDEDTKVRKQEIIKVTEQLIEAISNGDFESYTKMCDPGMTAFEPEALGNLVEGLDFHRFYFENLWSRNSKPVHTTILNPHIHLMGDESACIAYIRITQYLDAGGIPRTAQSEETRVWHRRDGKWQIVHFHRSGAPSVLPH
Structure (SMILES)	inhibition [%]
CN1CC(O)C2=C/C(=N/NC(N)=O)C(=O)C=C21 (stereo not shown)	2
COc1ccc(C(Cl)=C(c2ccc(OC)cc2)c2ccc(OC)cc2)cc1	-7
C[C@@H](O)[C@H]1C(=O)N2C(C(=O)O)=C(S[C@@H]3CN[C@H](CNS(N)(=O)=O)C3)[C@H](C)[C@H]12	3
COc1cc(C(O)C(=O)O)ccc1O (stereo not shown)	38
COc1cccc(OC)c1C(=O)O	-57
Cc1cc(O)c2c(c1)C(=O)c1cccc(O)c1C2=O	-9
NC(=O)/C=C/c1ccccc1	4
CC(=O)CCc1ccc(O)cc1	-4
CC(=O)c1ccc2c(c1)N(CCCN1CCN(CCO)CC1)c1ccccc1S2	-6
CC(=O)O[C@H]1CC[C@]2(C)[C@H]3CC=C4[C@@H]5[C@@H](C)[C@H](C)CC[C@]5(C(=O)O)CC[C@@]4(C)[C@]3(C)CC[C@H]2C1(C)C	-5
Nc1nc2c(ncn2[C@@H]2O[C@H](CO)[C@@H](O)[C@H]2O)c(=O)[nH]1	25
CO[C@H]1C[C@H](O[C@@H]2/C(C)=C/C[C@@H]3C[C@@H](C[C@]4(CC[C@H](C)[C@@H](C5CCCCC5)O4)O3)OC(=O)[C@@H]3C=C(C)/C(=N/O)[C@H]4OC/C(=C\C=C\[C@@H]2C)[C@]43O)O[C@@H](C)[C@@H]1O	3
COC(=O)C1=COC(O[C@@H]2O[C@H](CO)[C@@H](O)[C@H](O)[C@H]2O)/C(=C/C(=O)O)C1CC(=O)OCCc1ccc(O)cc1 (stereo partly shown)	-4
